Experimental data pooled from the literature.
Every numbered part comes from another study and shows a few of its results, in no order. Positions count from the first letter of the parent shown.

Sample 1 — method: protein binding microarray; form: double-stranded DNA, one strand shown; sample: in vitro; concentration: not given; reference: not given; reading: higher = stronger binding
Target: Histone acetyltransferase KAT6A, winged helix 2, GST fusion (KAT6A, Homo sapiens, UniProt Q92794, residues 85-181)
Notes: 8-mer, flanks averaged, mean of 2 arrays, mostly near background
Residues (chain): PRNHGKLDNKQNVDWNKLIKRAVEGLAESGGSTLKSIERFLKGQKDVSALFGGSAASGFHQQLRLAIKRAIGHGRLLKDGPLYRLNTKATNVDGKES
Sequence	E-score
ACCCCAGG	-0.038
GCAACATA	-0.135
AACCCGTG	-0.0428
CGAATGGC	0.107
AACCAGCC	0.104
ATCCGTCG	-0.0566
ATATAAAG	-0.0494
CAGTGTGA	-0.0101
GCCTTAAC	-0.127
ACCAGCGT	0.105
ACGGGCGC	0.232
AGGGCTGA	-0.017
ATCACCAT	-0.0842
CAGGGCGC	0.208
CATACTGC	0.0518
CAGTCTAA	-0.125
ACATATGG	-0.248
GAGATTGA	-0.105
CGGCTCAG	0.265
CAATAACG	0.204
GGTTACTA	-0.0771

Sample 2 — method: aptamer microarray, sandwich; form: DNA with 2'F-ANA; sample: in vitro; concentration: 200 nM; with: Cy3 exosite-II aptamer, 400 nM; reading: higher = stronger binding; sequence: GGTTGGTGTGGTTGG
Target: Prothrombin, mature alpha-thrombin (F2, Homo sapiens, UniProt P00734)
Notes: whole 15-mer aptamer, many near background
Modification	mean fluorescence intensity
2'F-ANA at 4 6 8 9 10 11 12 13 14 15	57.2 a.u.
2'F-ANA at 4 7 8 9 10 11 13 14	67.9 a.u.
2'F-ANA at 2 4 5 6 7 10 11 12 13 15	47.8 a.u.
2'F-ANA at 5 9 11 12 13 14	44.4 a.u.
2'F-ANA at 1 3 8 9 13 14	97.8 a.u.
2'F-ANA at 1 2 7 8 15	254 a.u.
2'F-ANA at 1 7 9 12 13 14 15	116 a.u.
2'F-ANA at 1 6 7 8 9 10 11 12	67.1 a.u.
2'F-ANA at 3 4 6 10 15	253 a.u.
2'F-ANA at 3 8 9 10 13 15	531 a.u.
2'F-ANA at 1 3 4 5 6 12 13 15	76.5 a.u.
2'F-ANA at 3 8 9 14 15	623 a.u.
2'F-ANA at 1 2 3 4 6 8 11 12 13 15	278 a.u.
2'F-ANA at 2 4 5 6 8 10 11 12 13	52.9 a.u.
2'F-ANA at 1 5 7 10 11 12 14	48.1 a.u.
2'F-ANA at 2 3 7 8 12 13	1050 a.u.
2'F-ANA at 2 4 5 6 7 8 9 10 12 15	145 a.u.
2'F-ANA at 1 3 4 8	264 a.u.
2'F-ANA at 1 2 5 9 10 13 14 15	49.3 a.u.
2'F-ANA at 1 5 10 11 15	49.4 a.u.
2'F-ANA at 1 3 4 5 6 10 11 15	46.5 a.u.

Sample 3 — method: DHFR PCA, deep sequencing; sample: yeast; with: (+)-ABA 4.8 µM; reference: wild-type fitted maximum; reading: higher = stronger binding
Target: ABI1, truncated, D143A, DHFR fusion (Arabidopsis thaliana)
Notes: methotrexate growth selection, single substitutions
Starting sequence: PYL1, truncated, DHFR fusion (Arabidopsis thaliana); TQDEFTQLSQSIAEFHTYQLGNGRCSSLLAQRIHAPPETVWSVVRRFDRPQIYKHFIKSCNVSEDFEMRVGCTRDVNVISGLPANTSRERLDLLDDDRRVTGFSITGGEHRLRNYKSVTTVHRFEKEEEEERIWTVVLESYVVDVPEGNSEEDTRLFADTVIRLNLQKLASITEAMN; partner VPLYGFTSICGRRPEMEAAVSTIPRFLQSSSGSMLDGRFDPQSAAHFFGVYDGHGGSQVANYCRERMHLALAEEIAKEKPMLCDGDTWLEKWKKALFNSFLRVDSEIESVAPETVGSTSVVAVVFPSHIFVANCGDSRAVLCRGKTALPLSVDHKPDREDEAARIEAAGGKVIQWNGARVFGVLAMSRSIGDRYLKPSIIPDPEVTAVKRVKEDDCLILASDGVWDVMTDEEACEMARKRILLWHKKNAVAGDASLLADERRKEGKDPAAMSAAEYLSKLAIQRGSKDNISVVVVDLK
Substitution	relative binding score [%]
W41Y	-16.1
E64I	48.3
V70T	45.9
E174M	29.2
A30E	41.7
P146V	7.96
L82M	62.3
T1Y	73.8
C25V	78.8
N177K	76.3
I12M	30.7
Q167D	23.3
I57V	69.5
M176H	52.3
F47D	-15.8

Sample 4 — target: CCNB3, cyclin fold, Cln2 fusion (human); method: yeast growth competition, sequencing; sample: yeast; notes: weak parent motif; reference: not given; reading: higher = stronger binding
Starting sequence: MASTL docking peptide (human); PMIAKNLMCELDE
Substitution	normalised enrichment score
PMIDKNLMCELDE [A4D]	-0.0715
PMIAKNLMCELKE [D12K]	0.1
PMIAKNLMCLLDE [E10L]	0.434
PMIAKNLMCELGE [D12G]	0.0107
PMPAKNLMCELDE [I3P]	-0.195
PMKAKNLMCELDE [I3K]	-0.00361
PMIAKNLMRELDE [C9R]	0.0326
PMIAKPLMCELDE [N6P]	-0.0355
PMIEKNLMCELDE [A4E]	-0.248
PMIAKNLWCELDE [M8W]	0.201
PMIWKNLMCELDE [A4W]	0.698
PMIAKNLRCELDE [M8R]	-0.105
PMIAKSLMCELDE [N6S]	-0.184
PMIAKQLMCELDE [N6Q]	0.0437
PMITKNLMCELDE [A4T]	0.0128
PMIAKNLFCELDE [M8F]	-0.0166
PMICKNLMCELDE [A4C]	-0.0827
PMIAKNLMCNLDE [E10N]	-0.00466
PMIAKVLMCELDE [N6V]	-0.00273
PSIAKNLMCELDE [M2S]	0.259
PMIAKNLMCELPE [D12P]	-0.25
PMLAKNLMCELDE [I3L]	-0.211
PMIYKNLMCELDE [A4Y]	0.017
PMIAKKLMCELDE [N6K]	0.352
PMIAGNLMCELDE [K5G]	-0.157

Sample 5 — method: RNA Bind-n-Seq; form: RNA; sample: in vitro; concentration: not given; reference: input RNA pool; reading: higher = stronger binding
Target: RING finger protein unkempt homolog, zinc fingers 1-6, GST-SBP tag (UNK, Homo sapiens, UniProt Q9C0B0, residues 30-357)
Chain of UniProt Q9C0B0 (30-357, looked up): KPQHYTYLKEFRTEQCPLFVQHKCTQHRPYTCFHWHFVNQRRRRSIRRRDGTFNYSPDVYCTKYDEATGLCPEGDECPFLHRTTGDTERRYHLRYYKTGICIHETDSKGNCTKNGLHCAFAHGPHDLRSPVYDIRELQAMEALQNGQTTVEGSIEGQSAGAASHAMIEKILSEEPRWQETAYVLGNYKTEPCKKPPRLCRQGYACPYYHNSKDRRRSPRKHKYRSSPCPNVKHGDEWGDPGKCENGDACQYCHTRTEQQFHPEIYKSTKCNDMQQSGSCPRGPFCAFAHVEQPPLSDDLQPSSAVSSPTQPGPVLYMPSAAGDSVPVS
Notes: RNA with constant flanks, human and mouse sites, ends assumed
Sequence	bound/input enrichment
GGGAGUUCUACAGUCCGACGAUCCAAGGAAAGCCUAAUUUUGAAGAAUACUUUGAAAUUCUGACUCCAAAAAUCAACCAGACGUUUAGCGGGAUCAUGACUAUGUUGAAUAUGCAGUUUGUUGUACGAGUGAGGAGAUGGGACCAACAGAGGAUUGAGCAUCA	0.459 ratio
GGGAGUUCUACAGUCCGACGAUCGAACUGGUGGAAGCUAUGUAUGGCAAACUCAGCAACCAGGAAAGGAUCACACUGUUAGACAUAGUGAUAGCCAAGCUAGUGGGUGAGGAGCAGCUGACAAAGGAUGACAUCUCUAUCUUUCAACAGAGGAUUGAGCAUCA	0.262 ratio
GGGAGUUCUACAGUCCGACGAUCCAUGCGUACCGGAAACUACAUAGAGCUCAAUGAAGAAAAUGAUUUCCAUUAUAACGGUACCGAUGUGAGCUUUGAAGGUGGCACUCUUGGCUCUGCAUGGCUCUCUUCCAAUCCAGUUCCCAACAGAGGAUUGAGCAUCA	0.134 ratio
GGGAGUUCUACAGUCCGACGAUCUUUAUCGCAGCAGUUGAUCUAGAUGAGAUGCCAUUCACUUUUACUGAGCUACAGAAAAGCAUAGAAACCAGUGUCUAUAAAUUCUUUGACUUAUUAAAAGAAAUCGAUACCAGUACCAAGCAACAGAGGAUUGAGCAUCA	0.387 ratio
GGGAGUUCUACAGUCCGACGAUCGUACAGACUGCCUCAAAACAGGUUGAUGGUGAUUACGUCGUGUCUGAAUGGAGUGAGAUUAUAGAAUUCUGUACAGCAGAUUACUCCAAAGUUCAUCUAACACAGCUGCUGGAGAAGGCUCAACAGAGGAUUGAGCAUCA	0.23 ratio
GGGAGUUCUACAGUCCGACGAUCUAAGUAGGAACUGCCUCGAGCAGCUGGGACCCAGCAGGCCUGAGCCACAAAUCUGCAGCGGACAUCAGAGAUAGUCUGAAUGCUGCGAGGUAUUUCUUUCUUCGUAAGUUUAGUCAGCACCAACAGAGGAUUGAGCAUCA	0.228 ratio
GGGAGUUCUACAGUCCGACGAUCCUCAAUAAUACCUAUGAGUUCAUGAGCACAUUCUUCUUAGAAGUCAGCUCUGUCUUCCCAGAUUUUUAUCUUCAUCUUGGAGGAGAUGAGGUUGAUUUCACCUGCUGGAAGUCCAACCCACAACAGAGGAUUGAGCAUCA	0.186 ratio
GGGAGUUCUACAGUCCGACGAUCGAUGGAUUUUACUUUUCAACAACAUAUGACUUGACUCAUACUUUGCAGCGACUAUCUAACACGAGUCCAGAAUUCCAAGAAAUGAGUCUCUUAGAAAGGGCAGAUCAGCGGUUUGUAUGGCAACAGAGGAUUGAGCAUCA	0.201 ratio
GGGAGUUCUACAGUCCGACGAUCUCACACUCACAUUGUGGCAAACAGUCAACAUGGAAGUAGACCGGCUCUGCUGAUUUGAAAUUUAGAUUUUUUUUUAAUUAUGUACUGGGGACAGGUUUUUGUCGCUUUACAUUGCUUCCUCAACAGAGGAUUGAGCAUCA	86.5 ratio
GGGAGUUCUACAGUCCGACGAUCCACCAUUCUUUGUUUCCUAGGGAGUGACUGUCAAGUACUAAUUCCUCAAGAUGGUAUUUGUUAGUCCAAAAUGUUAAGCUUUUUAAAAAAAAAAUGUUACUUGAUUUCUUUUGAUUUGUACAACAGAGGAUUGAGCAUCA	1.18 ratio
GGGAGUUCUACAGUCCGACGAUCCUGAAUAGCAAUAAAUAUUUUCCCAGCAGGGUUAGCAUAAAAGAAUCAUCUGUAGCAAAACUAGGAUCAGUGUGCCGUAGGAUUUAUAGAAUAUUUUCACAUGCCUAUUUUCAUCACCGGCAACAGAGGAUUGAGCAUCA	34 ratio

Sample 6 — method: universal PBM; form: double-stranded DNA, one strand shown; sample: in vitro; concentration: 600 nM; reading: higher = stronger binding
Target: Sal-like protein 4, full length isoform A (SALL4, Homo sapiens, UniProt Q9UJQ4, residues 1-1053)
Chain of UniProt Q9UJQ4 (whole entry, looked up): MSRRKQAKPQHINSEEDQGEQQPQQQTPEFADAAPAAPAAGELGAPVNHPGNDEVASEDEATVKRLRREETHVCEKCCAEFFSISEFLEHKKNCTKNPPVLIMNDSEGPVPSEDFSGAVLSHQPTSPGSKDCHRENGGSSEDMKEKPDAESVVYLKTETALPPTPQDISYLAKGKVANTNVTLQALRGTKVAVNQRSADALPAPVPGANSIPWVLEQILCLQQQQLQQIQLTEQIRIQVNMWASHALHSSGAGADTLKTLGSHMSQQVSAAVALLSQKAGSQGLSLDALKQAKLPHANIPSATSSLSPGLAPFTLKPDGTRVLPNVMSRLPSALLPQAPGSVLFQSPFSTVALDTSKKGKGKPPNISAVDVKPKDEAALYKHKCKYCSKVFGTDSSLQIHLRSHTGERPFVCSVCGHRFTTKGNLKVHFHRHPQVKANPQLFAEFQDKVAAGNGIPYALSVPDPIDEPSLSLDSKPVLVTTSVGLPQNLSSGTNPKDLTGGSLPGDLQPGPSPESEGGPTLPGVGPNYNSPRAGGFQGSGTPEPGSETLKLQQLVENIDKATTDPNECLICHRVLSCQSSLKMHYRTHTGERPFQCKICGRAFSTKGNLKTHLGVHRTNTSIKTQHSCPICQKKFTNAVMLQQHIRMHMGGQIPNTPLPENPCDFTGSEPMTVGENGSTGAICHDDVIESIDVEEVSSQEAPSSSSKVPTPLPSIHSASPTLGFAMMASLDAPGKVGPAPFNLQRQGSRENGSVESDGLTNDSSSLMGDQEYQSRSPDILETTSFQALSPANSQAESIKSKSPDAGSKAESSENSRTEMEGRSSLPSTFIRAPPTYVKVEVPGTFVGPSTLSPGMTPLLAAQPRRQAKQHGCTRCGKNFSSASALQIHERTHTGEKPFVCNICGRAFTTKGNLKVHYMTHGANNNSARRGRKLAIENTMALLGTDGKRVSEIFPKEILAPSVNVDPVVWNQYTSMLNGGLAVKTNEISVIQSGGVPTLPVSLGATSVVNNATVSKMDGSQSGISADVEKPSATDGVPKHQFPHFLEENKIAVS
Notes: 8-mer, flanks averaged, mean of replicates
Sequence	E-score
GTCAAAGA	0.238
CCATTCTA	0.0763
AATGTACA	0.27
CCGGCGTC	-0.365
GGGAATCA	-0.148
AACCGGCT	-0.101
CCAAGGTC	-0.192
CCTGTTGA	0.0697
CGGGGGAC	-0.342
GGCGCTGA	-0.223
ACCCCTCA	-0.236
GAAAGGGC	-0.108
CTTGCACA	-0.0651
AAGCCTCA	-0.225
CATTATCG	0.129
GCTGTGCA	-0.269
ACTCTGAA	0.135
AGAACAGG	-0.148
CGCCGATC	-0.2
GGTGTAAA	0.0121
AGGGCCCT	-0.239
GCAAGTGA	-0.00674
AATTGTTG	0.197
GCATAGAC	-0.0616
ACTAGACA	0.173

Mixed results
Molecule	target	assay	system	conditions	scale	measurement	value
PhoQ, residues 284 288 289 292 302 303 SVTLVV	PhoP, residues 12 14 15 18 19 NFCKL (Escherichia coli, UniProt P23836)	Sort-seq, measured: YFP reporter	E. coli	PhoQ-PhoP variant library, with: 10 µM Mg2+	reference: high Mg2+ state, higher = stronger signaling	fold induction	7.17

Repeated from above (sample 6):
Sequence	E-score
GGCGCTGA	-0.223
ACCCCTCA	-0.236
GAAAGGGC	-0.108
CTTGCACA	-0.0651
AAGCCTCA	-0.225
CATTATCG	0.129
GCTGTGCA	-0.269
ACTCTGAA	0.135
AGAACAGG	-0.148
CGCCGATC	-0.2
GGTGTAAA	0.0121
AGGGCCCT	-0.239
GCAAGTGA	-0.00674
